# Assay results of several laboratories.
# Protocols differ between the studies behind these lines. “And” joins repeats or separate records; there may be more than shown.
# B1: BDP1 1-484 (Homo sapiens, UniProt A6H8Y1); chain MFRRARLSVKPNVRPGVGARGSTASNPQRGRESPRPPDPATDSASKPAEPTDVPTVDFGGAEPQEKAPRSSTEKTGGDNDVEESSRSSSTVSQRRKRISSTSSLVKSSVSVPSESHPLSTINQEAPQPTATSTKEKQPCSDRYRIYKAQKLREMLKEELRKEKKQWKNKYAINESQRPPDRSKMTMRDFIYYLPDNNPMTSSLEQEKKTEKPSTPVQTREQEGKSTPNAEDNEMEEETDDGPLLVPRVKVAEDGSIILDEESLTVEVLRTKGPCVVEENDPIFERGSTTTYSSFRKNYYSKPWSNKETDMFFLAISMVGTDFSMIGQLFPHRARIEIKNKFKREEKTNGWRIDKAFQEKRPFDFDFFAHLLQKVLAEEEKRKQKSVKNHSLKEKKSTKPRKNVKVKKVACEGVNNDPDESMSSRISDTERSQKDAQTVEEESLTLSREDAEQVALEVDLNQKKRRRKKQDGANELGVNNLLENA
# B2: EIF2S2 1-191 (Homo sapiens, UniProt P20042); sequence looked up; chain MSGDEMIFDPTMSKKKKKKKKPFMLDEEGDTQTEETQPSETKEVEPEPTEDKDLEADEEDTRKKDASDDLDDLNFFNQKKKKKKTKKIFDIDEAEEGVKDLKIESDVQEPTEPEDDLDIMLGNKKKKKKNVKFPDEDEILEKDEALEDEDNKKDDGISFSNQTGPAWAGSERDYTYEELLNRVFNIMREKN
# B3: EFR3A 721-791 K732E (Homo sapiens, UniProt Q14156); chain SNTEEITFEALEKAIDTSGMEEQEKEKRRLVIEKFQKAPFEEIAAQCESKANLLHDRLAQILELTIRPPPS
# B4: TFB2M 21-396 (Homo sapiens, UniProt Q9H5Q4); sequence looked up; chain GRFCILGSEAATRKHLPARNHCGLSDSSPQLWPEPDFRNPPRKASKASLDFKRYVTDRRLAETLAQIYLGKPSRPPHLLLECNPGPGILTQALLEAGAKVVALESDKTFIPHLESLGKNLDGKLRVIHCDFFKLDPRSGGVIKPPAMSSRGLFKNLGIEAVPWTADIPLKVVGMFPSRGEKRALWKLAYDLYSCTSIYKFGRIEVNMFIGEKEFQKLMADPGNPDLYHVLSVIWQLACEIKVLHMEPWSSFDIYTRKGPLENPKRRELLDQLQQKLYLIQMIPRQNLFTKNLTPMNYNIFFHLLKHCFGRRSATVIDHLRSLTPLDARDILMQIGKQEDEKVVNMHPQDFKTLFETIERSKDCAYKWLYDETLEDR
# B5: HY5 (Arabidopsis thaliana, UniProt O24646); sequence looked up; chain MQEQATSSLAASSLPSSSERSSSSAPHLEIKEGIESDEEIRRVPEFGGEAVGKETSGRESGSATGQERTQATVGESQRKRGRTPAEKENKRLKRLLRNRVSAQQARERKKAYLSELENRVKDLENKNSELEERLSTLQNENQMLRHILKNTTGNKRGGGGGSNADASL
# B6: CCA1 204-405 (Arabidopsis thaliana, UniProt P92973); sequence looked up; chain ESNSDLNAKSLENGNEQGPQTYPMHIPVLVPLGSSITSSLSHPPSEPDSHPHTVAGDYQSFPNHIMSTLLQTPALYTAATFASSFWPPDSSGGSPVPGNSPPNLAAMAAATVAAASAWWAANGLLPLCAPLSSGGFTSHPPSTFGPSCDVEYTKASTLQHGSVQSREQEHSEASKARSSLDSEDVENKSKPVCHEQPSATPE
# B7: PSMG3/PSMG4 heterodimer (Homo sapiens); chain 1 MEDTPLVISKQKTEVVCGVPTQVVCTAFSSHILVVVTQFGKMGTLVSLEPSSVASDVSKPVLTTKVLLGQDEPLIHVFAKNLVAFVSQEAGNRAVLLAVAVKDKSMEGLKALREVIRVCQVW; chain 2 MEGLVVAAGGDVSLHNFSARLWEQLVHFHVMRLTDSLFLWVGATPHLRNLAVAMCSRYDSIPVSTSLLGDTSDTTSTGLAQRLARKTNKQVFVSYNLQNTDSNFALLVENRIKEEMEAFPEKF
# B8: PUM1 774-1186 (Homo sapiens, UniProt Q14671); chain LGGLTNGSGRYISAAPGAEAKYRSASSASSLFSPSSTLFSSSRLRYGMSDVMPSGRSRLLEDFRNNRYPNLQLREIAGHIMEFSQDQHGSRFIQLKLERATPAERQLVFNEILQAAYQLMVDVFGNYVIQKFFEFGSLEQKLALAERIRGHVLSLALQMYGCRVIQKALEFIPSDQQNEMVRELDGHVLKCVKDQNGNHVVQKCIECVQPQSLQFIIDAFKGQVFALSTHPYGCRVIQRILEHCLPDQTLPILEELHQHTEQLVQDQYGNYVIQHVLEHGRPEDKSKIVAEIRGNVLVLSQHKFASNVVEKCVTHASRTERAVLIDEVCTMNDGPHSALYTMMKDQYANYVVQKMIDVAEPGQRKIVMHKIRPHIATLRKYTYGKHILAKLEKYYMKNGVDLGPICGPPNGII
# B9: lpxC 1-305 (Escherichia coli, UniProt P0A725); chain MIKQRTLKRIVQATGVGLHTGKKVTLTLRPAPANTGVIYRRTDLNPPVDFPADAKSVRDTMLCTCLVNEHDVRISTVEHLNAALAGLGIDNIVIEVNAPEIPIMDGSAAPFVYLLLDAGIDELNCAKKFVRIKETVRVEDGDKWAEFKPYNGFSLDFTIDFNHPAIDSSNQRYAMNFSADAFMRQISRARTFGFMRDIEYLQSRGLCLGGSFDCAIVVDDYRVLNEDGLRFEDEFVRHKMLDAIGDLFMCGHNIIGAFTAYKSGHALNNKLLQAVLAKQEAWEYVTFQDDAELPLAFKAPSAVLA
# B10: KAT7 364-473 (Homo sapiens, UniProt O95251); sequence looked up; chain RLYMCEFCLKYMKSQTILRRHMAKCVWKHPPGDEIYRKGSISVFEVDGKKNKIYCQNLCLLAKLFLDHKTLYYDVEPFLFYVMTEADNTGCHLIGYFSKEKNSFLNYNVS
# B11: PUM1 589-701 (Homo sapiens, UniProt Q14671); sequence looked up; chain ISSSAAQAAVAAAAASANGAAGGLAGTTNGPFRPLGTQQPQPQPQQQPNNNLASSSFYGNNSLNSNSQSSSLFSQGSAQPANTSLGFGSSSSLGATLGSALGGFGTAVANSNT
# B12: CLEC1A 74-280 (Homo sapiens, UniProt Q8NC01); sequence looked up; chain QYYQLSNTGQDTISQMEERLGNTSQELQSLQVQNIKLAGSLQHVAEKLCRELYNKAGAHRCSPCTEQWKWHGDNCYQFYKDSKSWEDCKYFCLSENSTMLKINKQEDLEFAASQSYSEFFYSYWTGLLRPDSGKAWLWMDGTPFTSELFHIIIDVTSPRSRDCVAILNGMIFSKDCKELKRCVCERRAGMVKPESLHVPPETLGEGD
# B13: SKI7 1-235 (Saccharomyces cerevisiae, UniProt Q08491); sequence looked up; chain MSLLEQLARKRIEKSKGLLSADQSHSTSKSASLLERLHKNRETKDNNAETKRKDLKTLLAKDKVKRSDFTPNQHSVSLSLKLSALKKSNSDLEKQGKSVTLDSKENELPTKRKSPDDKLNLEESWKAIKEMNHYCFLKNDPCINQTDDFAFTNFIIKDKKNSLSTSIPLSSQNSSFLSLKKHNNELLGIFVPCNLPKTTRKVAIENFNRPSPDDIIQSAQLNAFNEKLENLNIKS
# B14: qcr9 (Schizosaccharomyces pombe, UniProt O74433); sequence looked up; chain MASSTIYNIFFRRNSSFYATIFVSAFFAKIGFDVFTDSVWKRANAGLTWDEVKPRFLNKDEDAEDDE
Molecule,target or system,assay,system,conditions,how to read,endpoint,value
B1 (BDP1 1-484),BRF2/TBP 159-339; full length (Homo sapiens),cryo-EM,,,,binding,binds
"ARP6 (Saccharomyces cerevisiae, UniProt Q12509)","VPS72 (Saccharomyces cerevisiae, UniProt Q03388)",cryo-EM,,,,binding,binds
B2 (EIF2S2 1-191),"EIF5 196-431 (Homo sapiens, UniProt P55010)",NMR titration,,,,binding,binds
B3 (EFR3A 721-791 K732E),TTC7B/FAM126A FAM126A 1-308 (Homo sapiens),BLI,,,,binding,binds
B4 (TFB2M 21-396),"POLRMT 120-1230 E555A (Homo sapiens, UniProt O00411)",cryo-EM,,,,binding,binds
"HEEWEMVPRHS (STBD1 200-210 (Homo sapiens, UniProt O95210))","MAP1LC3C (Homo sapiens, UniProt Q9BXW4)",ITC,,,,binding,binds
B5 (HY5),"bHLH107 S62A/S72A (Arabidopsis, UniProt Q9LET0)",pull-down,,,,binding,binds
B6 (CCA1 204-405),"BZIP28 1-322 (Arabidopsis thaliana, UniProt Q9SG86)",pull-down,,,,binding,binds
PKRSFIESNV,human MAGI1-2/6 PDZ construct (MBP fusion),surface plasmon resonance,peptide,concentration not given,higher = stronger binding,normalised SPR binding response,10.8 normalised RU
Peginesatide,UT7/EPO,"RT-qPCR, item: DUSP2",,"concentration not given, 90 min, normalized to HPRT1",reference: vehicle,mRNA level,3.9 fold
B7 (PSMG3/PSMG4 heterodimer),"PSMA4 (Homo sapiens, UniProt P25789)",cryo-EM,,,,binding,binds
"PRI2 (Saccharomyces cerevisiae, UniProt P20457)","POL1 (Saccharomyces cerevisiae, UniProt P13382)",mass photometry,,,,binding,binds
SNEWILPRGPYK (engineered peptide),"EPHB2 19-543 (Homo sapiens, UniProt P29323)",SPR,peptide,,,binding,binds
galanin,"rebH (Lentzea aerocolonigenes, UniProt Q8KHZ8, A442V/K145M/M71V/N467T/N470S/S2P)",substrate,,,,total conversion,21.2% and 21.6%
KPGKGSETVV,human MAGI1-2/6 PDZ construct (MBP fusion),surface plasmon resonance,peptide,concentration not given,higher = stronger binding,normalised SPR binding response,92 normalised RU
B8 (PUM1 774-1186),CNOT1/CNOT2/CNOT3 NOT module 1833-2361,pull-down,,,,binding,binds
"RIE1 (Arabidopsis thaliana, UniProt Q8GUU2)","ACS7 15-447 (Arabidopsis thaliana, UniProt Q9STR4)",pull-down,,"2 h, 4 °C",,binding,binds
B9 (lpxC 1-305),"lapB 21-389 T154A (Escherichia coli, UniProt P0AB58)",pull-down,,,,binding,binds
B10 (KAT7 364-473),"HDAC2 (Homo sapiens, UniProt Q92769)",pull-down,,,,binding,binds
KKAQPISVTMVTPADLEPPQAKK (TonB residues 42-60 (Escherichia coli)),"exbD 61-141 (Escherichia coli, UniProt P0ABV2)",crystal structure,peptide,,,binding,binds
B11 (PUM1 589-701),CNOT1/CNOT2/CNOT3 C-terminal NOT module 1833-2361,pull-down,,,,binding,binds
ENEEDILVVTTQG (CALCOCO2 128-140 (Homo sapiens); N-terminal FITC),"RB1CC1 1490-1594 (Homo sapiens, UniProt Q8TDY2)",fluorescence polarisation,peptide,,,binding,binds
"SKKNNAASELANPYSSYVSQIRKHKRVSPNAAPR (NUP60 285-318 (Saccharomyces cerevisiae, UniProt P39705); sequence looked up)",NUP85/SEH1 Nup85 1-564 (Saccharomyces cerevisiae),pull-down,peptide,,,binding,binds
colistin,Klebsiella pneumoniae,broth microdilution,clinical isolate RKI-No_68/16,,,MIC,64 µg/mL
B12 (CLEC1A 74-280),"SERPINC1 mature (Homo sapiens, UniProt P01008)",SPR,,,,binding,binds
B13 (SKI7 1-235),"SKI3 (Saccharomyces cerevisiae, UniProt P17883)",cryo-EM,,,,binding,binds
B14 (qcr9),"COX5 mature (Schizosaccharomyces pombe, UniProt O74988)",cryo-EM,,,,binding,binds
